Results gathered from unrelated publications.
Lines come from different studies, so protocols differ.
HLA class I histocompatibility antigen, A alpha chain allele A*01:01: HLA class I histocompatibility antigen, A alpha chain, allele A*01:01 (Homo sapiens, UniProt P04439)
HLA class I histocompatibility antigen, A alpha chain allele A*26:01: HLA class I histocompatibility antigen, A alpha chain, allele A*26:01 (Homo sapiens, UniProt P04439)
HLA class I histocompatibility antigen, A alpha chain allele A*02:01: HLA class I histocompatibility antigen, A alpha chain, allele A*02:01 (Homo sapiens, UniProt P04439)

CSCC[C@H](NC(=O)[C@H](CCC(=O)O)NC(=O)[C@H](CCC(=O)O)NC(=O)[C@@H](N)CCCNC(=N)N)C(=O)N[C@@H](CCC(=O)O)C(=O)N[C@H](C(=O)N[C@@H](Cc1c[nH]cn1)C(=O)N[C@@H](CCC(=O)O)C(=O)N[C@@H](CC(C)C)C(=O)O)C(C)C  IC50 (HLA class I histocompatibility antigen, A alpha chain allele A*01:01; binding, competitor, radioligand competition; two days, room temperature, HLA-A*01:01): > 40 µM
CC[C@H](C)[C@H](NC(=O)[C@H](CC(C)C)NC(=O)CNC(=O)[C@H](CCCNC(=N)N)NC(=O)[C@H](CC(C)C)NC(=O)[C@@H](NC(=O)[C@H](CCSC)NC(=O)[C@@H]1CCCN1C(=O)CN)C(C)C)C(=O)N[C@H](C(=O)O)[C@@H](C)O  IC50 (HLA class I histocompatibility antigen, A alpha chain allele A*26:01; peptide-MHC binding, radioligand competition binding): 0.884 µM
CC[C@H](C)[C@H](NC(=O)[C@@H](N)Cc1c[nH]cn1)C(=O)N[C@@H](Cc1ccccc1)C(=O)N[C@@H](CO)C(=O)N[C@@H](CCCNC(=N)N)C(=O)N1CCC[C@H]1C(=O)N[C@@H](CCSC)C(=O)N[C@H](C(=O)N[C@@H](Cc1ccccc1)C(=O)O)[C@@H](C)O  IC50 (HLA class I histocompatibility antigen, A alpha chain allele A*02:01; binding): 35 µM
CC[C@H](C)[C@H](NC(=O)[C@H](CCCNC(=N)N)NC(=O)CNC(=O)[C@@H](NC(=O)[C@@H]1CCCN1C(=O)[C@@H](N)CCSC)[C@@H](C)CC)C(=O)N[C@@H](C)C(=O)N[C@@H](CCC(=O)O)C(=O)N[C@@H](CS)C(=O)N[C@H](C(=O)N[C@@H](CC(C)C)C(=O)O)[C@@H](C)CC  IC50 (HLA class I histocompatibility antigen, A alpha chain allele A*02:01; binding, competitor, radioligand competition; two days, room temperature, HLA-A*02:01): > 40 µM
C[C@H](NC(=O)[C@@H](N)CO)C(=O)N[C@@H](CC(=O)O)C(=O)N[C@@H](CC(N)=O)C(=O)N[C@@H](CC(N)=O)C(=O)N[C@@H](CC(N)=O)C(=O)N[C@@H](CO)C(=O)N[C@@H](CCC(=O)O)C(=O)N[C@@H](Cc1ccc(O)cc1)C(=O)O  Kd (HLA class I histocompatibility antigen, A alpha chain allele A*01:01; binding, fluorescence competition; 2 days, HLA-A*0101, with: 6-FAM-labelled peptide tracer): 6.75 µM
CC(C)[C@H](NC(=O)CNC(=O)CNC(=O)[C@@H](NC(=O)[C@H](CO)NC(=O)[C@@H]1CCCN1C(=O)[C@H](C)NC(=O)[C@H](CO)NC(=O)[C@H](CCCCN)NC(=O)[C@@H](N)CCCNC(=N)N)[C@@H](C)O)C(=O)O  IC50 (HLA class I histocompatibility antigen, A alpha chain, allele A*02:03 (Homo sapiens, UniProt P04439); binding): > 38.7 µM
CSCC[C@H](NC(=O)[C@@H](N)Cc1ccc(O)cc1)C(=O)N[C@@H](CC(=O)O)C(=O)N1CCC[C@H]1C(=O)N[C@H](C(=O)N1CCC[C@H]1C(=O)N[C@@H](CC(C)C)C(=O)N[C@@H](CCC(N)=O)C(=O)N[C@@H](Cc1ccccc1)C(=O)O)C(C)C  IC50 (HLA class I histocompatibility antigen, A alpha chain allele A*01:01; binding): 0.116 µM
CC[C@H](C)[C@H](NC(=O)[C@H](CC(C)C)NC(=O)CN)C(=O)N[C@H](C(=O)N[C@@H](CC(C)C)C(=O)N[C@@H](CO)C(=O)N[C@@H](Cc1ccc(O)cc1)C(=O)N[C@@H](Cc1c[nH]cn1)C(=O)N[C@@H](CC(C)C)C(=O)O)[C@@H](C)O  IC50 (HLA class I histocompatibility antigen, A alpha chain allele A*26:01; peptide-MHC binding, radioligand competition binding): 40.3 µM
CC(C)C[C@H](NC(=O)[C@@H](N)CCCCN)C(=O)N[C@@H](Cc1ccccc1)C(=O)N[C@@H](CO)C(=O)N[C@@H](CCCNC(=N)N)C(=O)N1CCC[C@H]1C(=O)N[C@@H](CC(C)C)C(=O)N[C@H](C(=O)N[C@@H](Cc1ccccc1)C(=O)O)[C@@H](C)O  IC50 (HLA class I histocompatibility antigen, A alpha chain allele A*02:01; binding): 0.327 µM
C[C@@H](O)[C@H](N)C(=O)NCC(=O)N[C@@H](CCC(N)=O)C(=O)N[C@@H](CC(N)=O)C(=O)N[C@@H](CC(N)=O)C(=O)N[C@@H](CC(N)=O)C(=O)N[C@@H](CO)C(=O)N[C@@H](CC(N)=O)C(=O)N[C@@H](Cc1ccccc1)C(=O)O  Kd (HLA class I histocompatibility antigen, A alpha chain allele A*01:01; binding, fluorescence competition; 2 days, HLA-A*0101, with: 6-FAM-labelled peptide tracer): 3.59 µM

Repeated from above:
CC[C@H](C)[C@H](NC(=O)[C@H](CC(C)C)NC(=O)CN)C(=O)N[C@H](C(=O)N[C@@H](CC(C)C)C(=O)N[C@@H](CO)C(=O)N[C@@H](Cc1ccc(O)cc1)C(=O)N[C@@H](Cc1c[nH]cn1)C(=O)N[C@@H](CC(C)C)C(=O)O)[C@@H](C)O  IC50 (HLA class I histocompatibility antigen, A alpha chain allele A*26:01; peptide-MHC binding, radioligand competition binding): 40.3 µM
